Measured values pooled from the literature.
± marks the error that the study gave.

C=CC(=O)NCCCCCCOCc1cn(CCCCCCNC(=O)C=C)nn1 gave an IC50 of greater than 50000 nM (L929; viability, alamarBlue; 3 days).
Cn1ncc(-c2ccc3c(=O)[nH]nc(CN)c3c2)c1-c1c(F)c(Cl)cc(OC2CC2)c1C#N has an IC50 of 140 nM (RS4;11; cell viability, inhibitor, CellTiter-Glo; 120 h).
With CCOc1cncc(-c2ccc(NC(=O)C3(c4ccnc(NS(=O)(=O)C5CC5)n4)CCOCC3)nc2)n1 the IC50 was 113 nM (A-431; cell proliferation, CellTiter-Glo; 72 h, Vulval cancer).
N#Cc1c(N)nc2c(c1-c1ccc(CO)o1)Cc1cc(O)ccc1-2 has an IC50 of 6300 nM (Jurkat; cell growth or viability, ATP luminescence).
The IC50 of CC(C)N1C(=O)C2=Nc3ccccc3CN2C1=S is reported as 31400 ± 7700 nM (CEM/ADR5000 (P-gp overexpressing, multidrug resistant); cell viability, resazurin; 72 h).
The IC50 of NC1=C(Cl)C(=O)c2ccccc2C1=O is reported as 14000 nM (HuCC-A1; cell growth or viability, MTT).
For C[C@H](c1ccccc1)N1C(=O)C2=Nc3ccc(Br)cc3CN2C1=S, the IC50 was 409 ± 28 nM (CEM/ADR5000 (P-gp overexpressing, multidrug resistant); cell viability, resazurin; 72 h).
C=CS(=O)(=O)NCCCCOCc1cn(CCCCNS(=O)(=O)C=C)nn1 gave an IC50 of greater than 50000 nM (L929; viability, alamarBlue; 3 days).
The IC50 of C1=[N+]2CCCC[N+]3=Cc4ccc5[n]4[Au-]23[n]2c1ccc2-c1nc2ccccc2nc1-5.F[P-](F)(F)(F)(F)F is reported as 4900 nM (HCT-116 colon cancer; cell growth).
For C=C(C)C(=O)NCCCCCCCCOCc1cn(CCCCCCCCNC(=O)C(=C)C)n[n+]1C, the IC50 was 35400 nM (L929; cell growth or viability; 72 h).
Nc1ncnc2c1ncn2CCN1C(=O)/C(=N\N=C2/NC(=O)CS2)c2cc(F)ccc21 gave an IC50 of 54.7 µg/mL (BALB/3T3 clone A31; cell growth or viability, SRB; 72 h).
CNS(=O)(=O)Nc1nccc(Cc2c(C)c3ccc(Oc4ncccc4F)cc3oc2=O)c1F has an IC50 of greater than 1000 nM (NCI-H1373; cell viability; 7 days).
Cn1c(=O)n(C2CCC(=O)NC2=O)c2ccc(C3CCN(CC(=O)Nc4cccc(CS(=O)(=O)N5CC[C@H](Nc6cccc(-c7sc(C(=O)O)c(OCC(=O)O)c7Cl)c6)CC5(C)C)c4)CC3)cc21 (stereo partly shown) gave an IC50 of 29 ± 27 nM (B16-F10 cells; IFNγ-induced STAT1 phosphorylation, HTRF, refers to: pSTAT1 Tyr701; 24 h, with: IFNγ).
CC(C)c1ccc(N(C)c2ccc3c(c2)OCC[C@H]3CNc2cnccc2C(=O)O)cc1 gave an IC50 of no less than 10000 nM (TE-15; cell viability, CellTiter-Glo; 7 days).
The IC50 of C=CC(=O)N1C[C@H](C)N(c2nc(OC[C@@]34CCCN3C[C@H](F)C4)nc3c(F)c(-c4ccc(F)c5sc(N)c(C#N)c45)c(C(F)(F)F)cc23)C[C@H]1C is reported as 0.2 nM (Ba/F3 expressing KRAS G12C; cell viability, CellTiter-Glo; 3 days).
The IC50 of COc1cc(C(=O)N/N=C/c2cccc3ccccc23)cc(OC)c1OC is reported as 47.6 nM (NALM16; cell growth or viability, MTT; 48 h).

A few entries again:
For C=C(C)C(=O)NCCCCCCCCOCc1cn(CCCCCCCCNC(=O)C(=C)C)n[n+]1C, the IC50 was 35400 nM (L929; cell growth or viability; 72 h).
